Assay results of several laboratories.
± gives the spread as reported. Values after ≈ are worked out from the molar mass of the structure shown.
AKR1B1: Aldo-keto reductase family 1 member B1 (AKR1B1, Homo sapiens, UniProt P15121)

For CCc1nn(C)c2nc(-c3ccc(C(=O)O)c(F)c3)nc(NCc3ccc(F)cc3)c12, anti-parasitic activity read “not toxic” (Cryptosporidium parvum; parasite growth, high-content microscopy; HCT-8, Iowa; concentration not given).
COc1cc(/C=N/NC(=S)NN=Cc2ccc([N+](=O)[O-])o2)ccc1Oc1ccnc2cc(Cl)ccc12 has a Km of 3.95 mM (AKR1B1; Lineweaver-Burk kinetics; 3.30 µg (IC40)).
Under congener production, CN1[C@@H]2CC[C@H]1C[C@@H](OC(c1ccccc1)c1ccccc1)C2 is recorded as “increased” (Campylobacter concisus; 1 other congeners).
CCOc1c([C@H](C)n2nc(C)c3c(N)ncnc32)cc(Cl)c(F)c1[C@@H]1CNC(=O)C1 — result for “half-life geometric mean”: 8.9 h (patients with B-cell malignancies, plasma; oral, 20 mg, day 15, monotherapy).
O=C(NCc1ccc(OC(F)(F)F)cc1)c1cn(Cc2ccc(F)cc2)c2ccc(Oc3ccccc3)cc2c1=O has a CC50 of 47.6 ± 10.5 µM (Jurkat; 72 h).
Nc1nn2c(-c3ccc(Cl)cc3Cl)cc(-c3ccc(OCc4ccccc4)cc3)nc2c1N=Nc1ccc(F)cc1 has an MBC/MIC ratio of 2 (Bacillus pumilus; broth microdilution; MTCC 2296).
For OO, “depolarized mitochondria cells” read 49% (MDA-MB-231-LM2-4; JC-1 flow cytometry; 1 mM, 5 h, positive control).
With COCCOc1cnc2ccn([C@H](C)c3nnc4c(F)cc(-c5cnn(C)c5)cn34)c(=O)c2c1 the half-life was 6.6 h (patients, plasma; oral, 150 mg once daily, day 1).
The IC50 of COc1cc(/C=N/NC(=S)N/N=C/c2ccc(C)cc2)ccc1Oc1ccnc2cc(Cl)ccc12 is reported as 6.45 ± 0.17 mg/L (≈ 12.8 µM) (AKR1B1; enzyme activity, inhibitor, item: NADPH; added: DL-glyceraldehyde substrate).
For CCc1nn(C)c2nc(-c3ccc(C(=O)O)nc3)nc(NCc3ccc(F)cc3)c12, anti-parasitic activity read “not toxic” (Cryptosporidium parvum; parasite growth, high-content microscopy; HCT-8, Iowa; concentration not given).
Cc1ccc(-c2cc(-c3ccc(OCc4ccccc4)cc3)nc3c(N=Nc4ccc(F)cc4)c(N)nn23)cc1 gave an MBC/MIC ratio of 4 (Escherichia coli; ATCC 25955).
For O=C(Nc1cc(-c2ccc(Cl)cc2)[nH]n1)C1CCCCC1, the remaining activity was 86% (AMPK; enzyme activity; 10 µM).
For Nc1nn2c(-c3ccco3)cc(-c3ccc(OCc4ccccc4)cc3)nc2c1N=Nc1ccc(F)cc1, the MBC was 15.6 mg/L (≈ 30.9 µM) (Escherichia coli; ATCC 25955).
For CCc1nn(C)c2nc(-c3ccc4c(c3)COC4=O)nc(NCc3ccc(F)cc3)c12, anti-parasitic activity read “inactive” (Cryptosporidium parvum; parasite growth, high-content microscopy; HCT-8, Iowa; concentration not given).
The CC50 of O=C(O)c1cn(Cc2ccc(C(F)(F)F)cc2)c2ccc(Oc3ccccc3)cc2c1=O is reported as greater than 100 µM (MDA-MB-468; 72 h).
With COc1ccc(N=Nc2c(N)nn3c(-c4ccc(C)cc4)cc(-c4ccc(OCc5ccccc5)cc4)nc23)cc1 the MBC was 31.3 mg/L (≈ 57.9 µM) (Escherichia coli; ATCC 25955).
For CCc1nn(C)c2nc(-c3ccc(P(=O)(O)O)cc3)nc(NCc3ccc(F)cc3)c12, anti-parasitic activity read “inactive” (Cryptosporidium parvum; parasite growth, high-content microscopy; HCT-8, Iowa; concentration not given).
For COc1ccc(NC(=O)Cn2cc(COc3ccc(-c4nc5ccccc5c(=O)n4Nc4ccc([N+](=O)[O-])cc4[N+](=O)[O-])cc3OC)nn2)c(OC)c1, the inhibition was 101 ± 1.68% (mushroom tyrosinase; enzyme activity; 40 µM, added: L-DOPA).

Repeated from above:
For CCc1nn(C)c2nc(-c3ccc4c(c3)COC4=O)nc(NCc3ccc(F)cc3)c12, anti-parasitic activity read “inactive” (Cryptosporidium parvum; parasite growth, high-content microscopy; HCT-8, Iowa; concentration not given).
For CCc1nn(C)c2nc(-c3ccc(C(=O)O)nc3)nc(NCc3ccc(F)cc3)c12, anti-parasitic activity read “not toxic” (Cryptosporidium parvum; parasite growth, high-content microscopy; HCT-8, Iowa; concentration not given).
